Measured values pooled from the literature.
Protocols differ between the studies behind these lines. Numbers after ± are the reported error.

SMILES	target or system	assay	test system	conditions	how to read	endpoint	result
CC1CN(S(=O)(=O)c2ccc(C=O)cc2)CC(C)O1 (stereo not shown)	YWHAG/RELA (Homo sapiens, UniProt P61981+Q04206)	14-3-3/p65 binding stabilisation, fluorescence anisotropy	–	1 mM, added: FITC-labelled bivalent p65 peptide	baseline: DMSO control	stabilisation factor	8
N=C(N)NCCC[C@@H]1NC(=O)[C@H](CCCCNC(=O)CNC(=O)CNC(=O)CNC(=O)CC[C@H](NC(=O)CNC(=O)CNC(=O)CNC(=O)CN2CCN(CC(=O)O)CCN(CC(=O)O)CCN(CC(=O)O)CC2)C(=O)NCC(=O)NCC(=O)NCC(=O)NCCCC[C@@H]2NC(=O)[C@@H](Cc3ccccc3)NC(=O)[C@H](CC(=O)O)NC(=O)CNC(=O)[C@H](CCCNC(=N)N)NC2=O)NC(=O)[C@@H](Cc2ccccc2)NC(=O)[C@H](CC(=O)O)NC(=O)CNC1=O [indium-111 labelled]	–	–	female athymic nu/nu mice, kidney	intravenous, 24 h	–	tissue uptake	2.08 ± 0.16 %ID/g
CC(=O)N[C@@H](CO)C(=O)N[C@@H](CC(C)C)C(=O)N[C@@H](CCC(=O)O)C(=O)N[C@@H](CCC(=O)O)C(=O)N1CCC[C@H]1C(=O)N[C@@H](Cc1c[nH]cn1)C(=O)N[C@@H](COP(=O)(O)O)C(=O)N1CCC[C@H]1C(=O)N[C@@H](CCC(=O)O)C(=O)N[C@H](C(=O)NCC(=O)N[C@@H](CCC(=O)O)C(=O)N[C@@H](CCCCN)C(=O)N[C@H](C(=O)N[C@H](C(=O)N[C@@H](C)C(=O)NCC(=O)N[C@@H](CCC(=O)O)C(=O)N[C@H](C(=O)N[C@@H](CC(N)=O)C(N)=O)C(C)C)C(C)C)C(C)C)[C@@H](C)O	Kelch-like ECH-associated protein 1, Kelch domain (KEAP1, Homo sapiens, UniProt Q14145)	isothermal titration calorimetry	Kelch domain	pH 7, 298.15 K	–	TΔS	-2.88 kcal/mol
CC[C@H](C)[C@H](NC(=O)[C@H](CCCNC(=N)N)NC(=O)[C@H](CCCCN)NC(=O)[C@@H](NC(=O)[C@H](C)NC(=O)[C@H](CCCNC(=N)N)NC(=O)[C@H](CCC(N)=O)NC(=O)[C@H](CO)NC(=O)[C@H](CCCCN)NC(=O)[C@H](CC(N)=O)NC(=O)[C@@H](N)CCCNC(=N)N)[C@@H](C)O)C(=O)N[C@@H](CO)C(=O)N[C@@H](Cc1c[nH]cn1)C(=O)N[C@@H](CCSC)C(=O)N1CCC[C@H]1C(=O)N[C@@H](CO)C(=O)N[C@@H](CCCNC(=N)N)C(=O)N1CCC[C@H]1C(=O)N[C@@H](CCC(=O)O)C(=O)N[C@@H](CC(C)C)C(=O)N[C@@H](CO)C(=O)N[C@@H](C)C(=O)N[C@H](C(=O)N[C@@H](C)C(=O)N[C@H](C(=O)N[C@@H](CC(=O)O)C(=O)N[C@@H](CC(C)C)C(=O)N[C@@H](CCCNC(=N)N)C(=O)N[C@@H](CCCCN)C(=O)N[C@@H](CC(=O)O)C(=O)N[C@@H](CCCCN)C(=O)N[C@@H](C)C(=O)N[C@@H](CCCCN)C(=O)N[C@@H](COP(=O)(O)O)C(=O)N[C@@H](CSC/C=C(\C)CC/C=C(\C)CCC=C(C)C)C(=O)OC)[C@@H](C)O)C(C)C	YWHAZ (Homo sapiens, UniProt P63104)	binding	–	–	–	koff	8.02 s⁻¹
N#C/C(=C\c1ccc2cc(N3CCCCC3)ccc2c1)C(=O)OCC(O)CO (stereo not shown)	Amyloid-beta precursor protein, Aβ42 aggregates (APP, Homo sapiens, UniProt P05067)	fluorescence	–	free probe, 5% DMSO in water	–	excitation maximum	410 nm
COc1ccc(CCCN[C@@H]2CCC[C@H]2CN[C@H]2CCC[C@@H]2CNCCCCN[C@H]2CCC[C@@H]2CN)cc1	MAOA (Homo sapiens, UniProt P21397)	enzyme activity, inhibitor	–	added: tyramine 50 µM	–	Ki	190 ± 32 µM
CC(C)CC(=N)NCCC[C@H](N)C(=O)O	Nitric oxide synthase, inducible, dimer (Nos2, Mus musculus, UniProt P29477)	dimer content, inactivator, low-temperature SDS-PAGE	–	–	–	remaining dimer	49 ± 5%
COc1cc(CNC(=O)C[C@H](C)CCC=C(C)C)ccc1OCc1cn(-c2ccccc2[N+](=O)[O-])nn1	LOX IMVI	SRB	–	10 µM, 48 h	–	growth	62%
C[C@@H]1NC(=O)[C@H](CC(N)=O)NC(=O)c2cc3ccccc3cc2NC(=O)[C@H](Cc2ccccc2)NC(=O)[C@H](CCCNC(=N)N)NC(=O)[C@@H]2CCCN2C(=O)[C@H]2CCCN2C(=O)[C@H](Cc2ccccc2)NC1=O	Melanocortin receptor 3 (Mus musculus, UniProt P33033)	antagonist, cAMP β-galactosidase reporter	–	no activity up to, added: MTII	–	antagonist activity	> 100 µM
CCCC[C@H](NC(=O)[C@@H]1CSSC[C@H](NC(=O)[C@@H](NC(C)=O)[C@@H](C)CC)C(=O)N[C@@H](C(C)C)C(=O)N[C@@H](Cc2cn(C)c3ccccc23)C(=O)N[C@@H](CCC(N)=O)C(=O)N[C@@H](CC(=O)O)C(=O)N[C@@H](Cc2c[nH]c3ccccc23)C(=O)N(C)CC(=O)N[C@@H](C)C(=O)N[C@@H](Cc2c[nH]cn2)C(=O)N[C@@H](CCCNC(=N)N)C(=O)N1)C(N)=O	Complement C3, C3b fragment (Homo sapiens, UniProt P01024)	SPR	–	25 °C	baseline: [Trp(Me)4]-Ac-compstatin	relative dissociation rate constant	1.7
COc1cc(CNC(=O)C[C@H](C)CCC=C(C)C)ccc1OCc1cn(-c2cccc(C(F)(F)F)c2)nn1	DU-145	SRB	–	10 µM, 48 h	–	growth percent	101%
CCCCCCOc1ccc(C(=O)OCC[N+]2(C)CC=CCC2)cc1 (stereo not shown)	muscarinic receptors M1 M3 M4 M5, human	[3H]NMS binding	–	–	–	dissociation half-time	4 to 5 h
CC(=O)N[C@@H](CC(=O)O)C(=O)N[C@H](C(=O)N[C@@H](CCN)C(=O)N[C@H](C=O)CC(=O)O)C(C)C	Caspase-2, circularly permuted (Homo sapiens, UniProt P42575)	enzyme activity, inhibitor	–	pH 6.5, 37 °C, added: Z-VDVAD-AFC	–	Ki	11.7 µM
CC[C@H](C)[C@H](NC(=O)[C@H](CCCNC(=N)N)NC(=O)NC[C@H](CCC(N)=O)NC(=O)NC[C@H](CC(C)C)NC(=O)NC[C@H](CCCNC(=N)N)NC(=O)NC[C@H](Cc1ccc2ccccc2c1)NC(=O)[C@H](CCCCN)NC(=O)[C@H](CCC(=O)O)NC(=O)[C@H](CCC(=O)O)NC(=O)[C@@H](NC(=O)[C@H](CO)NC(=O)[C@H](C)NC(C)=O)[C@@H](C)O)C(=O)N[C@@H](C)C(N)=O	Histone chaperone ASF1A (Homo sapiens, UniProt Q9Y294)	isothermal titration calorimetry	–	concentration not given, pH 7.5, 20 °C	–	binding enthalpy	-1.9 ± 0.4 kcal/mol
OC[C@H]1O[C@@H](OCc2cn([C@@H]3O[C@H](CO)[C@@H](n4cc(-c5ccc(-c6cn([C@H]7[C@H](O)[C@@H](O)[C@H](n8cc(CO[C@@H]9O[C@H](CO)[C@H](O)[C@H](O)[C@H]9O)nn8)O[C@@H]7CO)nn6)cc5)nn4)[C@H](O)[C@H]3O)nn2)[C@H](O)[C@@H](O)[C@H]1O	lecA (Pseudomonas aeruginosa, UniProt Q05097)	isothermal titration calorimetry	–	25 °C	–	ΔG	-10.9 ± 0.4 kcal/mol
CCOC(=O)c1cc2c(N)c(C(=O)OC)sc2nc1C	Urea transporter 1 (Mus musculus, UniProt Q8VHL0)	urea permeability, osmotic lysis	mouse erythrocytes	–	–	maximal inhibition	> 80%

Some of these lines once more:
SMILES	target or system	assay	test system	conditions	how to read	endpoint	result
CC(C)CC(=N)NCCC[C@H](N)C(=O)O	Nitric oxide synthase, inducible, dimer (Nos2, Mus musculus, UniProt P29477)	dimer content, inactivator, low-temperature SDS-PAGE	–	–	–	remaining dimer	49 ± 5%
COc1cc(CNC(=O)C[C@H](C)CCC=C(C)C)ccc1OCc1cn(-c2ccccc2[N+](=O)[O-])nn1	LOX IMVI	SRB	–	10 µM, 48 h	–	growth	62%
